Assay results of several laboratories.
Protocols differ between the studies behind these lines.

SMILES	assay	system	setting	endpoint	result
C=C(C)[C@@H]1CC[C@]2(NCCN3CCS(=O)(=O)CC3)CC[C@]3(C)[C@H](CC[C@@H]4[C@@]5(C)CC=C(C6=CC[C@@](CF)(C(=O)O)CC6)C(C)(C)[C@@H]5CC[C@]43C)[C@@H]12		healthy human volunteers	oral, 500 mg, 7 days	subjects with muscle spasms	0%
CC[C@H](C)[C@H](NC(=O)[C@H](Cc1ccccc1)NC(=O)[C@H](CCC(=O)O)NC(=O)[C@H](CCCCNC(=O)COCCOCCNC(=O)COCCOCCNC(=O)CC[C@H](NC(=O)CCCCCCCCCCCCCCCCC(=O)O)C(=O)O)NC(=O)[C@H](C)NC(=O)[C@H](C)NC(=O)[C@H](CCC(N)=O)NC(=O)CNC(=O)[C@H](CCC(=O)O)NC(=O)[C@H](CC(C)C)NC(=O)[C@H](Cc1ccc(O)cc1)NC(=O)[C@H](CO)NC(=O)[C@H](CO)NC(=O)[C@@H](NC(=O)[C@H](CC(=O)O)NC(=O)[C@H](CO)NC(=O)[C@@H](NC(=O)[C@H](Cc1ccccc1)NC(=O)[C@@H](NC(=O)CNC(=O)[C@H](CCC(=O)O)NC(=O)C(C)(C)NC(=O)[C@@H](N)Cc1cnc[nH]1)[C@@H](C)O)[C@@H](C)O)C(C)C)C(=O)N[C@@H](C)C(=O)N[C@@H](Cc1c[nH]c2ccccc12)C(=O)N[C@@H](CC(C)C)C(=O)N[C@H](C(=O)N[C@@H](CCCNC(=N)N)C(=O)NCC(=O)N[C@@H](CCCNC(=N)N)C(=O)NCC(=O)O)C(C)C		healthy humans	subcutaneous, 0.25 to 1.5 mg weekly, escalated, 16 weeks, Severe severity	subjects with adverse events	0%
CC(C)(C(=O)N1CCOc2c(C#N)cncc2C1)C(F)F	refers to: eye disorders	healthy humans, both sexes	oral, 40 mg single dose	subjects with TEAE	0%
O=C(COc1ccc(Cl)cc1)NC12CC(c3nnc([C@H]4C[C@@H](OC(F)(F)F)C4)o3)(C1)C2		humans, MAD	oral, dose not given, 14 days, all compound doses	subjects with any TEAE	91.2%
C[C@@H](N)c1cc(Cl)ccc1Cn1c(=S)[nH]c(=O)c2[nH]ccc21		human severe renal impairment	oral, 2.5 mg single dose	subjects with adverse events	10%
CN(C)C(=N)N=C(N)N	refers to: Nausea	healthy human	oral, dose not given	subjects with adverse event	4.2%
COC(=O)N[C@H](C(=O)N1CCC[C@H]1c1ncc(-c2cc(F)c3c(c2)O[C@@H](c2cnc(C4CC4)s2)n2c-3cc3cc(-c4cnc([C@@H]5CCCN5C(=O)[C@@H](NC(=O)OC)C(C)C)[nH]4)ccc32)[nH]1)C(C)C		healthy adult human	oral, 180 mg, 6 days, compound alone	subjects with abdominal discomfort	0%
Cc1cc(-c2nccc3c2ccn3CC(=O)Nc2ccc(-c3cnccn3)cn2)ccn1		human	5 mg once daily, multiple ascending dose	subjects with blurred vision	12.5%

Excerpt of the above:
SMILES	assay	system	setting	endpoint	result
O=C(COc1ccc(Cl)cc1)NC12CC(c3nnc([C@H]4C[C@@H](OC(F)(F)F)C4)o3)(C1)C2		humans, MAD	oral, dose not given, 14 days, all compound doses	subjects with any TEAE	91.2%
